Experimental data collected from several papers.
Protocols differ between the studies behind these lines. Values joined by “and” are separate records of one study, mostly repeats; a detail may differ. ± gives the spread as reported. Converted amounts (≈) assume the structure as drawn.

COc1ccc(-c2c(-c3ccccn3)nc3n2CCC3)cc1OC — IC50 (Leishmania infantum; macrophages, MHOM/MA(BE)/67/ITMAP263, amastigote): 1.74 µM and 2.38 µM
COc1cc2c(c(OC)c1OC)C(=O)c1c(cc(C)c(O)c1OC)C2=O — viability (HK-2 co-cultured with HepaRG; MTT; 33.33 µM, 24 h; relative to: untreated control): 78.7 ± 4.53%
CCn1cc(-c2cc(Cn3ccoc3=N)cc3c2CCN([C@@H](C)c2cc(OC)ccn2)C3=O)c(C(F)(F)F)n1 — EC50 (HEP3B217; cell growth; 120 h): 2.68 µM
Oc1ccc2cccc(O)c2n1 — inhibition (THP-1; pyroptotic LDH release; 2 µM, 40 min, together with: LPS then nigericin): 9.94%
COc1cccc(-c2nc3ccccn3c2Nc2ccc(F)cc2)n1 — IC50 (Leishmania infantum; macrophages, MHOM/MA(BE)/67/ITMAP263, amastigote): > 64 µM
CC(=O)c1ccc(O)c(C(=O)O)c1 — inhibition (THP-1; pyroptotic LDH release; 2 µM, 40 min, together with: LPS then nigericin): 0.998%
[2H]C([2H])([2H])N(c1ccc(F)cc1)c1c(-c2ccccn2)nc2ccccn12 — IC50 (Leishmania infantum; macrophages, MHOM/MA(BE)/67/ITMAP263, amastigote): 1.26 µM
OC(CCN1CCCCC1)(c1ccccc1)C1CC2C=CC1C2 (stereo not shown) — Change in alpha power, EEG, Fz/Cz (resting-state EEG; healthy elderly humans; oral, 4 mg, eyes open, LS mean; relative to: baseline): 14.9%
Nc1ccc(-c2c(-c3ccccn3)nc3n2CCC3)cc1 — IC50 (Leishmania infantum; macrophages, MHOM/MA(BE)/67/ITMAP263, amastigote): 1.36 µM and 2.26 µM
CCN1CCN(Cc2ccc(Nc3ncc(F)c(-c4cc(F)c5nc6n(c5c4)[C@H](C)CCC6)n3)nc2)CC1 — disease control rate (human advanced solid tumours; 500 mg, phase Ia monotherapy RECIST 1.1): 83.3%
O=C(/C=C/C=C/C=C/C1CCCCC1)NC1=C[C@@](O)(/C=C/C=C/C=C/C(=O)NC2=C(O)CCC2=O)[C@@H]2O[C@@H]2C1=O — GI50 (Calu-1; cell growth, CellTiter-Glo; 78 h): 13.6 µM
CC(C)NCC(O)c1ccc(O)c(O)c1 (stereo not shown) — sarcomere length (ventricular cardiomyocytes, C57BL/6 mouse; dose not given, 0.172 s): 1.51 µm
CCn1cc(-c2cc(Cn3ccnc3)cc3c2CCN([C@H](c2cc(OC)ccn2)C2CC2)C3=O)c(C(F)(F)F)n1 — EC50 (NCI-H1975; cell growth, inhibitor; 120 h): 0.0595 µM
Nc1nc(-c2ccccc2)nc2[nH]nc(Nc3ccc(C(F)(F)F)cc3)c12 — clinical score (coxsackievirus B3; 31-1-93, NMRI mice, CVB3 chronic myocarditis; oral, 100 mg/kg twice daily, day 26, dosed days 1 to 7, score scale 0 to 7; direction not given): 0.11
Cc1ccc2nc(-c3ccccc3)c(CNc3ccc(F)cc3)n2c1 — IC50 (Leishmania infantum; intramacrophage amastigotes, MHOM/MA(BE)/67/ITMAP263): > 64 µM
Cc1cc(NS(=O)(=O)c2ccc(N)cc2)no1 — inhibition (THP-1; pyroptotic LDH release; 2 µM, 40 min, together with: LPS then nigericin): 29.3%
Cc1cc(OC(C)C)ccc1C(=O)C(C)(C)NC(=O)c1sccc1C — EC50 (Alternaria alternata; mycelial growth; apple pathotype, PSA medium; 20 °C, suspension concentrate 400 g/L): 0.99 µg/mL
OC[C@H]1O[C@@H](Oc2ccc(O)cc2)[C@H](O)[C@@H](O)[C@@H]1O — inhibition (THP-1; pyroptotic LDH release; 2 µM, 40 min, together with: LPS then nigericin): -24.7%
O=C(O)CNC(=O)Cc1ccccc1 — sarcomere length (ventricular cardiomyocytes, C57BL/6 mouse; dose not given, 0.52 s): 1.62 µm
CC(C)n1ncc2c(C(=O)NCC3(C)CNC3)cc(C3CC3)nc21 — cell protection (Enterovirus D68; cytopathic effect; RD, US/KY/14-18953; 5000 nM): 95.6% and 89.4% and 83.1%
COc1cc(N2CCN(C)CC2)ccc1Nc1nccc(-c2cn(C)c3cnccc23)n1 — inhibition (THP-1; pyroptotic LDH release; 2 µM, 40 min, together with: LPS then nigericin): 46.5%
CCCCN(Cc1c(-c2ccccn2)nc2ccc(C)cn12)c1ccc(F)cc1 — IC50 (Leishmania infantum; macrophages, MHOM/MA(BE)/67/ITMAP263, amastigote): 5.94 µM and 9.04 µM
c1coc(-c2n[nH]cc2-c2ccnc3ccccc23)c1 — log2 fold change (orf19.4518 Candida albicans; kinase binding, MIB/MS competition; Candida albicans lysate; 1 µM; relative to: DMSO): -0.31
Cn1cc(-c2ccc(-c3cncc(Cl)c3N3CCC4(CCNC4=O)CC3)cc2)cn1 — log2 fold change (COLO 205; gene expression, microarray, item: BACE1 mRNA; concentration not given, 6 h; relative to: untreated cells): 3.88
CC(=O)NC[C@H]1CN(c2ccc(N3CCOCC3)c(F)c2)C(=O)O1 — MIC50 (Staphylococcus epidermidis; methicillin-resistant, 10 isolates; pH 5.5): 1 µg/mL (≈ 2.96 µM)
Cl.Fc1ccc(Nc2nc(NCC3CCCO3)c3ccccc3n2)cc1 (stereo not shown) — inhibition (Renilla luciferase reporter mRNA; in vitro translation, inhibitor; Trypanosoma cruzi translation extract; 20 µM): 53.6%
Fc1cc(F)cc(Nc2c(-c3ccccn3)nc3ccccn23)c1 — IC50 (Leishmania infantum; macrophages, MHOM/MA(BE)/67/ITMAP263, amastigote): 3.53 µM and 6.56 µM
CC(=O)OCC(=O)[C@@]12N=C(C)O[C@@H]1C[C@H]1[C@@H]3CCC4=CC(=O)C=C[C@]4(C)[C@H]3[C@@H](O)C[C@@]12C — inhibition (THP-1; pyroptotic LDH release; 2 µM, 40 min, together with: LPS then nigericin): 50.2%
CCNC(=O)/C=C/c1cccc(Br)c1 — L-leucine uptake (endogenous leucine transporters, hamster; L-[14C]leucine uptake; CHO-BC cells; 100 µM, 6 min, 37 °C, with sodium): 49.6 nmol/mg protein and 53.5 nmol/mg protein and 50.1 nmol/mg protein
COc1cc2c(c(O)c1OC)C(=O)c1c(cc(C)c(O[C@@H]3O[C@H](CO)[C@@H](O)[C@H](O)[C@H]3O)c1OC)C2=O — cell viability (HK-2 co-cultured with HepaRG; MTT; 16.67 µM, 24 h; relative to: untreated control): 85.2 ± 9.59%
Oc1cccc2ccccc12 — inhibition (THP-1; pyroptotic LDH release; 2 µM, 40 min, together with: LPS then nigericin): 3.12%
CC(C)[C@H](NC(=O)[C@@H](NC(=O)CCCc1cn(CC(O)CN2CCN(CC(=O)O)CCN(CC(=O)O)CCN(CC(=O)O)CC2)nn1)[C@@H](C)O)C(=O)N[C@@H](CCCNC(=N)N)C(=O)N[C@H](C(=O)N[C@@H](CO)C(=O)N[C@@H](C)C(=O)N[C@@H](CC(=O)O)C(=O)O)[C@@H](C)O (stereo partly shown) — AUC(0-inf) (healthy male humans, plasma; intravenous bolus, 0.08 mmol/kg): 1950 ± 322 µg·h/mL
COc1ccc(-c2nc3ccccn3c2Nc2ccc(F)cc2)nc1 — IC50 (Leishmania infantum; macrophages, MHOM/MA(BE)/67/ITMAP263, amastigote): 5.66 µM and 5.06 µM
CC(C)(C)c1ccc(C(O)CCCN2CCC(C(O)(c3ccccc3)c3ccccc3)CC2)cc1 (stereo not shown) — inhibition (THP-1; pyroptotic LDH release; 2 µM, 40 min, together with: LPS then nigericin): 3.89%

Some of these lines once more:
CCNC(=O)/C=C/c1cccc(Br)c1 — L-leucine uptake (endogenous leucine transporters, hamster; L-[14C]leucine uptake; CHO-BC cells; 100 µM, 6 min, 37 °C, with sodium): 49.6 nmol/mg protein and 53.5 nmol/mg protein and 50.1 nmol/mg protein
COc1cc2c(c(O)c1OC)C(=O)c1c(cc(C)c(O[C@@H]3O[C@H](CO)[C@@H](O)[C@H](O)[C@H]3O)c1OC)C2=O — cell viability (HK-2 co-cultured with HepaRG; MTT; 16.67 µM, 24 h; relative to: untreated control): 85.2 ± 9.59%
